Results from different studies.
Every numbered part comes from another study and shows a few of its results, in no order. Positions count from the first letter of the parent shown.

Series 1
Target: CCNA2, cyclin fold, Cln2 fusion (human)
Technique: yeast growth competition, sequencing
Medium: yeast
Setting: strong parent motif
Reference: not given
Direction: higher = stronger binding
Starting sequence: CDKN1B docking peptide (human); PSACRNLFGPVDH
Variant	normalised enrichment score
A3M	2.13
C4E	0.0473
C4T	0.863
F8R	0.588
P1S	3.36
H13E	4.32
P1H	4.26
V11T	3.45
F8Q	0.614
N6Y	0.421
S2F	2.4
F8H	0.278
D12Q	4.08
D12E	3.75
C4W	1.92
A3G	0.218
L7F	1.1
N6D	0.271
H13W	4.15
A3H	1.83
D12A	4.31
P1V	3.57
P10Q	3.59
C4A	3.73
L7V	0.73

Series 2
Target: RING finger protein unkempt homolog, zinc fingers 1-6, GST-SBP tag (UNK, Homo sapiens, UniProt Q9C0B0, residues 30-357)
UniProt Q9C0B0, sequence (30-357, looked up): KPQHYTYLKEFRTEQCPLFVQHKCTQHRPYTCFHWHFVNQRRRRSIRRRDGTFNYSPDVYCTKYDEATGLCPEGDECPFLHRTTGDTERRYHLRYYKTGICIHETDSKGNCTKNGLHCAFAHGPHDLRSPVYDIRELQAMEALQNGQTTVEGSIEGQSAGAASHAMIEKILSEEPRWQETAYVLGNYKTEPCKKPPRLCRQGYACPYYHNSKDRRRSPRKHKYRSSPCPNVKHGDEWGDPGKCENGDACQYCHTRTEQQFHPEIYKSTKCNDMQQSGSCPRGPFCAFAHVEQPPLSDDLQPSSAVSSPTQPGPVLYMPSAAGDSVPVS
Technique: RNA Bind-n-Seq
Molecule type: RNA
Medium: in vitro
Concentration: not given
Setting: RNA with constant flanks, human-mouse chimeric sites, ends assumed
Reference: input RNA pool
Direction: higher = stronger binding
Shared flanks, not repeated: GGGAGUUCUACAGUCCGACGAUC … CAACAGAGGAUUGAGCAUCA
Oligonucleotide	bound/input enrichment [ratio]
GGAAGUACAAUGAUGGAGAUUGAUGGUGACAAAGGCAAGCAGGGCGGGCCCACCUACUACAUAGAUACUAAUGCUCUCCGCGUGCCCAGGGAGAACAUGGAGGCCAUCUCACCACUCAAG	0.88
CAGCGCCGAGGCCGCGGUUUCCCCCUGGGCCUCCCCAGCCGCCGCCAUGGGCAUCAAAUUUUUAGAAGUUAUUAAACCAUUCUGUGCAGUUCUACCAGAAAUUCAGAAACCGGAAAGGAA	5.96
GUAUACGGUUAUCGAGGAAAGGACUGUAGAGCGAAUGUAUACCUGCUUCCGACCGGGGAGAUAGUUUAUUUUAUCGCCUCAGUGGUAGUCCUGUUUAAUUAUGAGGAGAGGACUCAGCGA	0.368
UCCUGGUCGUGUCCCAGUGCAGGACGAGAACAUGGACAACUCAAAGCGGACCCUCUAUUGUAGUUCUUGAUUCUCGAAAUGUGCUAUUAUUGUUUGUCUUUUUUUUUUUUUUUUUAAAGA	0.947
GUAUUUGUGCGCUCCCCACUCGUGUUUUUAAGUGUAUUUUUAUAAGAUACAUGUAUUUACAAUUGAGUUUUUGAUUAAUAAUGCUGAAAUGCUACUGGAGAUUAUGAAAAAUGUUUCAAU	0.254
UCAACUGACAACAUCAAAUACCAGCCUAAAGGGGGGCAGGUACAAAUUGUUACCAAGAAAAUAGACCUAAGCCAUGUGACAUCCAAAUGUGGCUCUCUGAAGAACAUCCGUCACAGGCCA	0.476

Series 3
Target: Fragile X messenger ribonucleoprotein 1, C-terminal low-complexity region (Fmr1, Mus musculus, UniProt P35922)
Technique: RNA Bind-n-Seq
Molecule type: RNA
Medium: in vitro
Concentration: 200 nM
Setting: whole 134-nt RNA, ends assumed
Added: 150 mM KCl
Reference: input library
Direction: higher = stronger binding
Shared flanks, not repeated: GGGAGUUCUACAGUCCGACGAUC … UGGAAUUCUCGGGUGUCAAGG
Oligonucleotide	log2 enrichment
UCAAGUCCUGUGCUACACAUCGUAUGUACCGAAUCGGAAAAAGGUUUGGAAAGGAAAGUAUUAUGUUACGCCGUUCGGAUCUGCACUUCC	-0.852
GUCCUGUGCUACACAUCGUAUGUACCGAAUCGGGGAGGGGAAAAAGGGGUUUUUGGGGAAAGUAUUAUGUUACGCCGUUCGGAUCUGCAC	0.613
AGUCCUGUGCUACACAUCGUAUGUACCGAAUCGGGGAAAGGGGAGGGGAAAAAGGGGAAAGUAUUAUGUUACGCCGUUCGGAUCUGCACU	0.511
UGGCAGAGAAAUUGCAGCUGCAGGAGCAGCUCCAGGCAGAAACCGAGCUGUGUGCCGAGGCUGAGGAGCUCCGGGCCCGCCUGACCGCCA	-0.45
CCUGUGCUACACAUCGUAUGUACCGAAUCGGGGUUUUUGGGGAAAAAGGGGUUUUUGGGGAAAGUAUUAUGUUACGCCGUUCGGAUCUGC	0.435
UGGGAGGUGGAUUUUGUUUAUUUUUUUAGCUCAUUUCCAGGGGUGGGAAUUUUUUUUUAAUAUGUGUCAUGAAUAAAGUUGUUUUUGCAA	0.327
UGGCCCUGGUGGCAUGCGGGGAGGAAGAGGUGGCCUCAGGGAUCGUGGUGGUCCCGGUGGAAUGUUCAGAGGUGGCCGUGGUGGAGACAG	-0.196
UGGGAGGUGGAUUUUGUUUAUUUUUUUAGCUCAUUUCCAGGGGUGGGAGUUUUUUUUUAAUAUGUGUCAUGAAUAAAGUUGUUUUUGAAA	0.48
GUCCUGUGCUACACAUCGUAUGUACCGAAUCGGGAAAAAAAGGGAAAGGGUUUUUGGGAAAGUAUUAUGUUACGCCGUUCGGAUCUGCAC	-0.27

Series 4
Target: Sal-like protein 4, full length isoform A (SALL4, Homo sapiens, UniProt Q9UJQ4, residues 1-1053)
UniProt Q9UJQ4, sequence (whole entry, looked up): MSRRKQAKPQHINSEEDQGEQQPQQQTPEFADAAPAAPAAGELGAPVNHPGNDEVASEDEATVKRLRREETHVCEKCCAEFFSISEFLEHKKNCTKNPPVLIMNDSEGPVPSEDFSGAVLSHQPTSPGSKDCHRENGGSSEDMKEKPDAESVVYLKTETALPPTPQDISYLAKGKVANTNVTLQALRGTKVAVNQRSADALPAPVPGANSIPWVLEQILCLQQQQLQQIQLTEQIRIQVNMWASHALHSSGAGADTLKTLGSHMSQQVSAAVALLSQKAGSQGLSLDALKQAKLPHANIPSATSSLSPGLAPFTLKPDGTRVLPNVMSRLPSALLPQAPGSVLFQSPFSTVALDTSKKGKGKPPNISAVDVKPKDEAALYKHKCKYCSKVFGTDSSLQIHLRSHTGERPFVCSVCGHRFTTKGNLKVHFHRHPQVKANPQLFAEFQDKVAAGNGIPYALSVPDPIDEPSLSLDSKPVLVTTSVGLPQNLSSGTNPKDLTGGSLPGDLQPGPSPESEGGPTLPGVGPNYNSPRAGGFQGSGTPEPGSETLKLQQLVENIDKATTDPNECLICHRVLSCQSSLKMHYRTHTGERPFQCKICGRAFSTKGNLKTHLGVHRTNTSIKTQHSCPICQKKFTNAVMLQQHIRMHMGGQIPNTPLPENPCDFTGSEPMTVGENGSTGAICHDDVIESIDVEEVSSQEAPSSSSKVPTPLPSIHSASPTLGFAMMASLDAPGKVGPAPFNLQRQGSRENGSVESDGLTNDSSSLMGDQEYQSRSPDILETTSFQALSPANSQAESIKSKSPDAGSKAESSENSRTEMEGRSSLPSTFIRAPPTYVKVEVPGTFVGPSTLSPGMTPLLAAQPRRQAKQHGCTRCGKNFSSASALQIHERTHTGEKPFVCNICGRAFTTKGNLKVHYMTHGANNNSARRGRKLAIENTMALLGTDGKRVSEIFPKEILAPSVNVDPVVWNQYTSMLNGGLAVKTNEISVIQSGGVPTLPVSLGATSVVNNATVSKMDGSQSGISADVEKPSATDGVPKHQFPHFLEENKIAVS
Technique: universal PBM
Molecule type: double-stranded DNA, one strand shown
Medium: in vitro
Concentration: 600 nM
Setting: 8-mer, flanks averaged, mean of replicates
Direction: higher = stronger binding
Oligonucleotide	E-score
ATTGACTA	0.124
AGGGGGCC	-0.381
TACGCCGA	-0.209
AGGGAGCC	-0.425
ATAAAGAG	0.15
GCGGAGAA	-0.171
GACGATAC	-0.0301
GTTCCTAA	0.0162
ACGCACGT	-0.0738
GAGGAGTA	-0.0233
ACCACGTA	-0.114
ACCTCCGA	-0.0589
AGCTGTTC	-0.196
AAATTGCT	0.172
GAGCAACA	-0.0526
CCACGGGA	-0.239
CCCTTATA	0.202
ATCTATCC	0.135
ATGCTAAC	0.106
AGATAGCA	0.102
CCCCGCTA	-0.134
ATTCAAGC	0.184
CACTTTGC	0.02
CTGTTTGA	0.126
AGAAAGGA	-0.00169

Other studies, line by line
Molecule	target	test	test system	setting	how to read	measurement	value
PhoQ, residues 284 288 289 292 302 303 ASASEQ	PhoP, residues 12 14 15 18 19 SPWRL (Escherichia coli, UniProt P23836)	Sort-seq, item: YFP reporter	E. coli	PhoQ-PhoP variant library, added: 10 µM Mg2+	reference: high Mg2+ state, higher = stronger signaling	fold induction	1.18

A few entries again (series 1):
Variant	normalised enrichment score
L7F	1.1
H13E	4.32
F8Q	0.614
L7V	0.73
C4E	0.0473
D12E	3.75
